Published values collected from several papers.
± gives the spread as reported.
Cell line: Caco-2

`O=c1c2cc(Cl)ncc2[nH]c(=S)n1Cc1cccnc1` — result for “Papp (B to A)”: 42.9 ×10⁻⁶ cm/s (10 µM, 90 min, pH 7.4, 0.1% BSA receiver side).
`COc1nc(NCc2cn(-c3ccc(NC(=O)c4ccc(C(F)(F)F)cc4)cc3)nn2)nc(OC)n1` has a selectivity ratio of 0.12 (MTT; relative to: normal rat colonocytes over Caco-2).
Under “Papp (B to A)”, `C[C@]12CC[C@@H]3c4ccc(OS(=O)(=O)O)cc4CC[C@H]3[C@@H]1CCC2=O` is recorded as 12.6 ×10⁻⁶ cm/s (no inhibitor, BCRP (novobiocin) set).
`CCOc1cc(-c2nncn2C)ccc1Nc1ncc2cc(C)nc(NCC(C)(C)C)c2n1` gave a Papp(A-B) of 6.71 ×10⁻⁶ cm/s (10 µM).
`CCOc1nc(-c2cccc(O)c2)cc(-c2cc3ccccc3nc2N2CCOCC2)c1C#N` has a selectivity ratio of 0.27 (MTT; 72 h, 10% FBS; relative to: WI-38 EC50 over Caco-2 IC50).
`NS(=O)(=O)c1nnc(NC(=O)C2CCCC3(CCCCC3)C2)s1` (centres unmarked) — result for “Papp A to B”: 5.5 ×10⁻⁶ cm/s.
`CCOc1cc(C(C)(C)C)ccc1C1=N[C@@H](c2ccc(Cl)cc2)[C@@H](c2ccc(Cl)cc2)N1C(=O)N1CCN(CC(=O)NCCOCCOCCOCCNC(=O)CN2CCN(C(=O)N3C(c4ccc(C(C)(C)C)cc4OCC)=N[C@@H](c4ccc(Cl)cc4)[C@H]3c3ccc(Cl)cc3)CC2=O)C(=O)C1` (relative stereo) — result for “Papp B to A”: 0.02 ×10⁻⁶ cm/s (10 µM, 2 h, 37 °C).
`C#Cc1c(F)ccc2cc(O)cc(-c3ncc4c(N5CC6CCC(C5)N6)nc(OC[C@@]56CCCN5C[C@H](F)C6)nc4c3F)c12` — result for “Papp (B to A)”: 11 ×10⁻⁶ cm/s (no inhibitor, P-gp (verapamil) set).
Under “Papp B to A”, `O=C(Nc1c2c(cc3c1CCC3)CCC2)NS(=O)(=O)/C=C/c1nccs1` is recorded as 10.8 ± 1.17 ×10⁻⁶ cm/s (2 µM, 120 min, pH 7.4).
Under cytotoxicity, `CC(=O)N[C@H]1[C@H]([C@H](O)[C@H](O)CO)OC(C(=O)O)=C[C@@H]1N=C(N)N` is recorded as “not toxic” (MTT; 300 and 400 µg/mL, 3 h).
With `CC[C@H](C)C(=O)N1CCC(NC(=O)Nc2ccc(OC(F)(F)F)c(F)c2)CC1` the percent recovery was 47% (Caco-2 permeability; 10 µM, 60 min, pH 7.4 apical, 7.4 basolateral, mean; apical to basolateral).
`NS(=O)(=O)c1nnc(NC(=O)CCC2CCC(F)(F)CC2)s1`: “Papp A to B” 1 ×10⁻⁶ cm/s.
With `Cc1cc(Nc2cc3ncccc3c(N[C@@H]3C[C@H]4CC[C@@H](C3)N4CCC#N)n2)n[nH]1` the Papp B-A was 37.9 ×10⁻⁶ cm/s (5 µM, 120 min).
`CCCCCCCOC(=O)c1ccc(O)cc1` has a hydrolysed compound of 26.2 ± 0.7% (5 µM, 60 min, A-B direction).
`CC(C)NCC(O)COc1cccc2ccccc12` (centres unmarked) has a recovery of 75.2% (5 µM, 2 h, basolateral to apical).
`CC(=O)CC(c1ccccc1)c1c(O)c2ccccc2oc1=O` (centres unmarked) has a recovery B-A of 84% (10 µM, 2 h).
`Cc1ccccc1CN1C(=O)C2=C(CCN(Cc3ccccc3)C2)N2CCN=C12` has an apparent permeability of 27 ×10⁻⁶ cm/s (apical to basolateral).
With `COc1nc(NCc2cn(-c3ccc(C(=O)Nc4ccc(C)cc4)cc3)nn2)nc(OC)n1` the selectivity ratio was 0.27 (MTT; relative to: normal rat colonocytes over Caco-2).
With `CN(C)C/C=C/C(=O)Nc1cc2c(Nc3ccc(F)c(Cl)c3)ncnc2cc1O[C@H]1CCOC1` the Papp B-A was ~4 ×10⁻⁶ cm/s (100 µM, 3 h).
`Cc1cc(C)c(CNC(=O)c2cc(Cl)c3c(c2C)O[C@@](C)([C@H]2CC[C@H](N(C)C)CC2)O3)c(=O)[nH]1` gave an efflux ratio of 48 (20 µM).
For `CN1CCC(COc2cnc(-c3cccc(Cn4nc(-c5cccc(C#N)c5)ccc4=O)c3)nc2)CC1`, the Papp was 25.4 ×10⁻⁶ cm/s.
With `CCCCCOC(=O)c1ccc(O)cc1` the hydrolysed compound was 35.8 ± 2% (5 µM, 60 min, A-B direction).
`CCCCC(CC)CNC(=N)NC(=N)NCCCCCCNC(=N)NC(=N)NCC(CC)CCCC` (centres unmarked) has a recovery of 28.1% (5 µM, 2 h, basolateral to apical).
For `Cc1nsc(-c2nnc3n2CCN(C(=O)c2ccc(F)cc2)[C@@H]3C)n1`, the passive permeability was 102 ×10⁻⁶ cm/s.
`N#C[C@@]1(c2ccc3c(N)ncnn23)O[C@H](CO)[C@@H](O)[C@H]1O` has a recovery of 106% (bidirectional permeability; 10 µM, 120 min; apical to basolateral).
The selectivity ratio of `COc1nc(NCc2cn(-c3ccc(NC(=O)c4ccccc4)cc3)nn2)nc(OC)n1` is reported as 0.07 (MTT; relative to: normal rat colonocytes over Caco-2).
With `CC[C@H]1OC(=O)[C@H](C)[C@@H](O[C@H]2C[C@@](C)(OC)[C@@H](O)[C@H](C)O2)[C@H](C)[C@@H](O[C@@H]2O[C@H](C)C[C@H](N(C)C)[C@H]2O)[C@](C)(O)C[C@@H](C)C(=O)[C@H](C)[C@@H](O)[C@]1(C)O` the mass balance was 103 ± 8.5% (60 min, apical to basolateral).
With `CCCOc1nc(-c2cccc(O)c2)cc(-c2cc3cc(Cl)ccc3nc2N2CCOCC2)c1C#N` the selectivity ratio was 0.172 (MTT; 72 h, 10% FBS; relative to: WI-38 EC50 over Caco-2 IC50).
`Cc1ccc2[nH]c(=S)n(Cc3cccnc3)c(=O)c2c1`: “Papp (B to A)” 29.6 ×10⁻⁶ cm/s (10 µM, 90 min, pH 7.4, 0.1% BSA receiver side).
For `CC[C@@H]1C(=O)N(C)c2cnc(Nc3ccc(C(=O)NC4CCN(C)CC4)cc3OC)nc2N1C1CCCC1`, the Papp A-B was > 1 ×10⁻⁶ cm/s (10 µM, 2 h).
`CCCOC(=O)c1ccc(O)cc1` has a hydrolysed compound of 53.8 ± 2.4% (5 µM, 60 min, A-B direction).
`COCC(=O)OCc1cc2[nH]c(=S)n(Cc3cccnc3)c(=O)c2cc1Cl`: “Papp (B to A)” 0.1 ×10⁻⁶ cm/s (10 µM, 90 min, pH 7.4, 0.1% BSA receiver side).
The selectivity ratio of `COc1ccc(C(=O)Nc2ccc(-n3cc(CNc4nc(OC)nc(OC)n4)nn3)cc2)cc1` is reported as 0.01 (MTT; relative to: normal rat colonocytes over Caco-2).
`Cc1ccc(NC(=O)c2ccc(P(C)(C)=O)cc2)cc1Nc1nccc(-c2cccnc2)n1` has a Papp(A-B) of 0.1 ×10⁻⁶ cm/s.
The Papp of `CCn1c(C(=O)N(C2CC2)C2CC2)cc2c3c(ncn3C)c(Nc3cc(C)n(C)n3)nc21` is reported as 50 ×10⁻⁶ cm/s.
`Cc1ccc(CCC(=O)Nc2nnc(S(N)(=O)=O)s2)cc1` — result for “Papp A to B”: 8.3 ×10⁻⁶ cm/s.
`COc1nc(NCc2cn(-c3ccc(C(=O)Nc4ccc(F)cc4)cc3)nn2)nc(OC)n1` has a selectivity ratio of 0.1 (MTT; relative to: normal rat colonocytes over Caco-2).
`CO[C@@H](C[C@H]1C(C)=CC[C@@H]2[C@]3(C)C[C@H](O[C@@H]4O[C@@H](C)[C@H](OC(=O)c5cccc(O)c5)[C@@H](O[C@@H]5O[C@H](CO)[C@@H](O)[C@H](O)[C@H]5NC(C)=O)[C@H]4O)[C@@H](O)C(C)(C)[C@H]3CC[C@]21C)[C@H](N)C(=O)O.O=C(O)C(F)(F)F` has a recovery of 87% (transwell permeability; 5 µM, 1 h).
